Measurements gathered from unrelated publications.
Parts stem from different laboratories: compare values within a part only. Substitutions count along the parent as printed.

Set 1
Target: CCNB1, cyclin fold, Cln2 fusion (human)
Method: yeast growth competition, sequencing
Matrix: yeast
Setting: weak parent motif
Relative to: not given
Direction: higher = stronger binding
Quantity: normalised enrichment score
Starting sequence: SAMHD1 docking peptide (human); ASKSRVQLFKDDP
D12W: -0.395
S4H: 0.0526
S2W: 0.194
Q7L: 0.12
V6Y: 0.143
D12N: 0.17
L8M: 0.258
R5C: 0.293
D12L: -0.107
K3S: 0.102
L8C: 0.264
R5K: 0.21
L8D: -0.141
D12F: -0.114
R5F: 0.127
K3V: 0.109
L8N: 0.296
F9M: 0.524
R5W: 0.616
Q7E: -0.0289
F9W: 0.439
L8R: 0.501
S4K: 0.242
Q7P: 0.257
D12S: 0.204

Set 2
Target: Interferon regulatory factor 5, full length, phosphomimetic (IRF5, Homo sapiens, UniProt Q13568-2, residues 1-514, K96S/S451D/S453D/S456D/S462D)
Method: protein-binding microarray
Molecule type: double-stranded DNA, one strand shown
Matrix: in vitro
Tested at: 250 nM
Setting: 60-bp whole probe
With: salmon DNA 0.4 mg/ml
Relative to: random background probes
Direction: higher = stronger binding
Quantity: log fluorescence
All sequences stand within: GCCTAGCAC … GTCTTGATTCGCTTGACGCTGCTG
GACGGACTGGGTTTCGAGACGTGCTAG: 1.35 z-score
TTAGGTTGCCTTTTCCTTTAGTGCTAG: 0.472 z-score
TCAGCAAAAATGATTGGACTGTGCTAG: -0.0284 z-score
TAGAATGTCCTTTCTCCATGGGTGCTA: 0.681 z-score
TTAGGTCTTGGTATCGGTTAGTGCTAG: 5.92 z-score
GACGGAATCGGACTGGGGACGTGCTAG: -0.0269 z-score
TTAGGACTGGGGACTGTGTTAGTGCTA: -0.236 z-score
TTAGGTTTCGGTTCCGGTCAGTGCTAG: 10.5 z-score
TCAGCTGTTTTTCTCACACTGTGCTAG: 0.692 z-score
GACGGACTGGACGCTGGGGACGTGCTA: -0.634 z-score
TTAGGTTTTGGTCTCGGTTAGTGCTAG: 3.13 z-score
CACCCCGCCCCTCCTTGGCCGTGCTAG: -0.365 z-score
TTAGAGCTGAGACTGGATTAGTGCTAG: -0.296 z-score
TTAGATTTAGGGACTGGATTAGTGCTA: -0.0717 z-score
GACGAACTGGGGTTTCGATACGTGCTA: 5.22 z-score
GACGAACTGGGGAGTGGAGACGTGCTA: -0.359 z-score
TCACCTTTTAATTTTTAACTGTGCTAG: 0.55 z-score

Set 3
Target: ABI1, truncated, D143A, DHFR fusion (Arabidopsis thaliana)
Method: DHFR PCA, deep sequencing
Matrix: yeast
Setting: methotrexate growth selection, single substitutions
With: (+)-ABA 1.4 µM
Relative to: wild-type fitted maximum
Direction: higher = stronger binding
Quantity: relative binding score
Starting sequence: PYL1, truncated, DHFR fusion (Arabidopsis thaliana); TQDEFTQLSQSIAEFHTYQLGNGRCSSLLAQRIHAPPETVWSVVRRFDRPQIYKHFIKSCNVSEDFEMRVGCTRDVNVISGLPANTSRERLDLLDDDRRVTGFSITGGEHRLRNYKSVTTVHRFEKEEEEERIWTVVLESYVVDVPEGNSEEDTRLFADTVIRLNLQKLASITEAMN
E67N: 44.6%
D92W: -1.94%
K126V: 71.9%
R88E: 49.1%
R132N: 81.7%
F157G: -12.5%
R45I: -21.6%
S27D: 31%
H34T: 12.1%
W134V: 55%
G81V: -6.02%

Further values, each from its own experiment
PhoQ, residues 284 288 289 292 302 303 SCKMEA — fold induction (PhoP, residues 12 14 15 18 19 TPLRH (Escherichia coli, UniProt P23836); Sort-seq, refers to: YFP reporter; E. coli; PhoQ-PhoP variant library, with: 10 µM Mg2+; relative to: high Mg2+ state, higher = stronger signaling): 11.6
